Results of several laboratories.
± gives the spread as reported.
Sequence of UniProt Q9UNQ0 (whole entry, looked up): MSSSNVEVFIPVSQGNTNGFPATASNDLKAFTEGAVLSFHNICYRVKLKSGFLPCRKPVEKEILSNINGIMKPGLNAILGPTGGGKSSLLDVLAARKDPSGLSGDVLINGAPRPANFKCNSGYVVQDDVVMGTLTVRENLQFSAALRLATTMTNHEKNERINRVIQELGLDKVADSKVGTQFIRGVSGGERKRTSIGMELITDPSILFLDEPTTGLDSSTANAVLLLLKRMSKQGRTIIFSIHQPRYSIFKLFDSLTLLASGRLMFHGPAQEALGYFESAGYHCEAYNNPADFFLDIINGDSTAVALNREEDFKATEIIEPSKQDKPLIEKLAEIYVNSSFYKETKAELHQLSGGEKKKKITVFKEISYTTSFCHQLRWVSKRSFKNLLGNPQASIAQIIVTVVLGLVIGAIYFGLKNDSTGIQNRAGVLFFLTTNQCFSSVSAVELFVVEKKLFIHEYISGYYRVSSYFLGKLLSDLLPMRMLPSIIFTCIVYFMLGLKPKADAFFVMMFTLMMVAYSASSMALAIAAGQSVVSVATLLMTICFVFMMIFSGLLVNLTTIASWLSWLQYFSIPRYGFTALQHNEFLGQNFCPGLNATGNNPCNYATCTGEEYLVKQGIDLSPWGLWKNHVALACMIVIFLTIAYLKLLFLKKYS
Sequence of UniProt P33261 (whole entry, looked up): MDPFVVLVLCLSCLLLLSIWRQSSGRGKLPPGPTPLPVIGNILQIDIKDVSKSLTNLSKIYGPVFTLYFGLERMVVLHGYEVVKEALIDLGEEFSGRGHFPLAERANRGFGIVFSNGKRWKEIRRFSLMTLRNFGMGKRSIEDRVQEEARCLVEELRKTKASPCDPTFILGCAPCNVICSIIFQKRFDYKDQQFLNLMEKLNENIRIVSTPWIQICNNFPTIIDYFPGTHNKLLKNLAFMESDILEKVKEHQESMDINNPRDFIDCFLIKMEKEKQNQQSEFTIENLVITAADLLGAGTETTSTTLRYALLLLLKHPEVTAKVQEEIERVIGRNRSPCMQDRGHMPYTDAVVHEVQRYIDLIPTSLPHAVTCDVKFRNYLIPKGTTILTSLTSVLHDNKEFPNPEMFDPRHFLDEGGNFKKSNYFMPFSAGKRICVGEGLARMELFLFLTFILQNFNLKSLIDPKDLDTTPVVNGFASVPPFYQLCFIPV

COc1cccc(OC)c1-c1cc(C(=O)NC2(C(=O)O)C3CC4CC(C3)CC2C4)nn1-c1ccc(C(=O)N(C)CCCN(C)CCCN(C)C(=O)[C@H](CCCCNC(=O)[C@H](CC(C)C)NC(=O)C2OC2C(=O)O)NC(=O)CN2CCN(CC(=O)[O-])CCN(CC(=O)[O-])CCN(CC(=O)[O-])CC2)cc1C(C)C.[177Lu+3] (mixture of isomers) has a tracer uptake of 0.17 %ID/g (HT-29 tumour model; host not given, pancreas; 7 days, tumour-bearing).
The efflux ratio of CNc1nc(N)nc2c1ncn2[C@@H]1O[C@H](CO)[C@@H](O)[C@@]1(C)F is reported as 0.917 ± 0.05 (ABCG2 (Homo sapiens, UniProt Q9UNQ0); bidirectional transport; MDCKII transfected with human BCRP; 10 µM, with: Ko143 1 µM).
CNC(=O)C1CCCN(C(=O)C2CC3CCC2N3C(=O)[C@@H]2C[C@@H](O)CN2C(=O)NCc2cccc(Cl)c2F)C1 (mixture of isomers) has a remaining activity of 102% (CYP2C19 (Homo sapiens, UniProt P33261); enzyme activity, inhibitor, time-dependent inhibition; 0.0686 µM, preincubated with NADPH; relative to: negative control).
CCN(CC)CC#CCNc1ccnc2cc(Cl)ccc12: “revertants per well” 2 (Salmonella typhimurium; mini-Ames test; TA1535; 250.0 µg/well, without S9).
The efflux ratio of N#Cc1cccc(-c2ccc(=O)n(Cc3cccc(-c4ncc(OCC5CCN(CC(=O)N6CCN(c7ccc8c(c7)C(=O)N(C7CCC(=O)NC7=O)C8=O)CC6)CC5)cn4)c3)n2)c1 (centres unmarked) is reported as 2.09 (Caco-2; transwell monolayer; 2 µM, 120 min, pH 7.4, 0.1% DMSO, with: GF120918 10 µM).
The selectivity index of CCCCCC(=O)N[C@@H](Cc1c[nH]c2ccccc12)C(=O)N[C@@H](CCCC)C(=O)N[C@@H](CC(C)C)C(=O)[C@@]1(C)CO1 is reported as < 1 (Trypanosoma brucei brucei; HepG2 cells, Lister 427; relative to: HepG2 CC50 over T. brucei EC50).
CC(C)Cc1ccc(C(C)C(=O)N[C@@H](CCCCNC(=O)CCOCCOCCOCCOCCOCCOCCNC(=O)CN2CCN(CC(=O)[O-])CCN(CC(=O)[O-])CCN(CC(=O)[O-])CC2)C(=O)Nc2cccc3c(C(=O)NCC(=O)N4CC(F)(F)C[C@H]4C#N)ccnc23)cc1.[177Lu+3] (some centres unmarked) gave a tracer uptake of 3 %ID/g (U-87 MG tumour model; host not given, muscle; 4 h, tumour-bearing).
N#C[C@@H]1CCCN1C(=O)CNC(=O)c1ccnc2ccc(OCCCN3CCN(C(=O)CCc4ccc5c(c4)CN4CCN(Cc6cc(CCC(=O)O)ccc6O)CC(=O)[O][Al-]([18F])([O]C(=O)C4)[O]5)CC3)cc12 (some centres unmarked) gave a tracer uptake of 0.95 %ID/g (U-87 MG tumour model; host not given, liver; 2 h, tumour-bearing).
N#C[C@@H]1CC(F)(F)CN1C(=O)CNC(=O)c1ccnc2c(NC(=O)[C@H](CCCCNC(=O)CCOCCOCCOCCOCCOCCOCCNC(=O)CN3CCN(CC(=O)[O-])CCN(CC(=O)[O-])CCN(CC(=O)[O-])CC3)NC(=O)CCCc3ccc(I)cc3)cccc12.[177Lu+3] has a tracer uptake of 2.19 %ID/g (U-87 MG tumour model; host not given, pancreas; 4 h, tumour-bearing).
With C=C(NC(=O)c1csc(-c2nc3c(cc2O)-c2nc(cs2)C(=O)NC(C(C)O)C(=O)NC(=C(C)OC)c2nc(cs2)C(=O)NC2c4nc(cs4)C(=O)NC(COC(=O)c4c5c6c(cccc6n4O)COC(=O)C(OC4CC(C)(O)C(N(C)C)C(C)O4)C2OC5)c2nc-3cs2)n1)C(N)=O (centres unmarked) the AUC(0-t) was 2900 ng·h/mL (ICR mice, Streptococcus pneumoniae ATCC 49169 infected, immunocompromised, blood; intravenous, 32 mg/kg/day three times daily).
CC(C)OCCOCc1ccc(OCC(O)CN(N=O)C(C)C)cc1 (centres unmarked) — result for “revertant fold increase”: 0.7 fold (Salmonella typhimurium; Ames test; TA1537; 158 µg/plate, without metabolic activation; relative to: solvent control).

For quick reference, copied from above:
N#C[C@@H]1CC(F)(F)CN1C(=O)CNC(=O)c1ccnc2c(NC(=O)[C@H](CCCCNC(=O)CCOCCOCCOCCOCCOCCOCCNC(=O)CN3CCN(CC(=O)[O-])CCN(CC(=O)[O-])CCN(CC(=O)[O-])CC3)NC(=O)CCCc3ccc(I)cc3)cccc12.[177Lu+3] has a tracer uptake of 2.19 %ID/g (U-87 MG tumour model; host not given, pancreas; 4 h, tumour-bearing).
